Results pooled from the literature.
Protocols differ between the studies behind these lines. Values joined by “and” are separate records of one study, mostly repeats; a detail may differ. ± gives the spread as reported.
CSTF2: CSTF2 1-107 (Homo sapiens, UniProt P33240)
UniProt P33240, sequence (whole entry, looked up): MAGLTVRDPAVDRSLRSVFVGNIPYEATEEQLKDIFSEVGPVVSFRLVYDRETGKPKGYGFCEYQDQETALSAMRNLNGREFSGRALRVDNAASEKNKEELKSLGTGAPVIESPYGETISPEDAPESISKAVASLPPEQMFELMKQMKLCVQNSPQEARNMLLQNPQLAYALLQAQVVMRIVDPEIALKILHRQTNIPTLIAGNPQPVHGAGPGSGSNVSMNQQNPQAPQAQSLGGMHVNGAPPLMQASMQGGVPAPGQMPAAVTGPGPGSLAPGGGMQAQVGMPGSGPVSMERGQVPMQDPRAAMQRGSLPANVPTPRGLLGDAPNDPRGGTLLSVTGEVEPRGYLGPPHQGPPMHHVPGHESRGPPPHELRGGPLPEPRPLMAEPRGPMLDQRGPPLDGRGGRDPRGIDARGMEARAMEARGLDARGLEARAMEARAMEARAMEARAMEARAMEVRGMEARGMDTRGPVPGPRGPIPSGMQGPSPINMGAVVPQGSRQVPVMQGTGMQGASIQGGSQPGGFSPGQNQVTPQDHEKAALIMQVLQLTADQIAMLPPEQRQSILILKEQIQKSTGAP
Cas13d full length assumed: Cas13d full length assumed (Eubacterium siraeum, UniProt B0MS50)

AUUUUAUGUUUCAGGU (ssRNA)  binding (CSTF2; NMR titration; RNA): binds
insulin human  fold change (item: PDK1 mRNA; EcoHIV-infected mouse, brain; i.p., dose not given; reference: PBS): 0.907
RNA 1 CACCCGUGCAAAAAUGCAGGGGUCUAAAACUGAGCGGAUAACCUCUCUAUGG / RNA 2 GGGUUCGUACCAUAGAGAGGUGAUCCGCUCACCGAGAUCG (crRNA/target DNA; mismatch at position 10)  binding (Cas13d full length assumed R295A/H300A/R849A/H854A (Eubacterium siraeum, UniProt B0MS50); EMSA; together with: EDTA 20 mM): binds
HVLVMSATRR  globulin (peptide, C57BL/6J mice, male, serum; subcutaneous osmotic pump, 3 mg/kg/day peptide basis, 8 weeks): 1.6 g/dL and 1.7 g/dL
glucagon  leg extraction (isotope dilution; human, type 1 diabetes; intravenous infusion, 0.05 ng/kg/min, 100 to 120 min): 27.3 ± 4.1%
CCTTAAGCGAGCCTTAAGTGA (dsDNA)  binding (carR 1-223 D51E/R211A (Pseudomonas aeruginosa, UniProt Q9I0I1); EMSA; double-stranded DNA, one strand shown): no binding
CTGTACGTCACTATCGAAGCAATACAGGTAGACGCGGACATCAAGCCCGCCGTGAAGGTGCAGCTTCTCTACAGAGTGCG (dsDNA; blunt; target/nontarget strands)  binding (Csy1/Csy2/Csy3/Csy4 1-434; 1-327; 1-342; 1-187 (Pseudomonas aeruginosa); EMSA; double-stranded DNA, one strand shown): binds
GCCGCCCCTCCCGTGTGCTCGCGCCCTGCCTCCGGCACCAAACTGAGTACAGCGTACCCGATTACGCGTACGCCGTACCCAGTTTTTCTTCGAGGACCTAAGCTGGCTCC (dsDNA)  binding (drrR1 full length assumed (Streptomyces coeruleorubidus, UniProt P0DXY9); EMSA; double-stranded DNA, one strand shown): binds
heparin sodium  positive urine ketone bodies (healthy Chinese adult volunteers; continuous intravenous infusion, 8 IU/kg/h, 5 days): 0%
AUUUUAUGUUUCAGGU (ssRNA (simian virus 40); phosphorothioate at nucleotide 2)  binding (CSTF2; NMR PRE; RNA): binds
ACGTTTACAAACACCTATGAATGTA (dsDNA)  binding (nalD full length assumed (Pseudomonas aeruginosa, UniProt Q9HY46); EMSA; double-stranded DNA, one strand shown): binds
UUUUUUUUUUUUUUUUUUUUUUUUUUUUUU (ssRNA)  binding (SKI2/SKI3/SKI8 1-1287, 1-1432, 1-397 (Saccharomyces cerevisiae); cryo-EM; RNA; together with: AMP-PNP): binds
hexaarginine  kon (PorA peptide pore; peptide binding, planar bilayer single-channel recording; 0.5 µM, pH 7.4, -25 mV, cis side, 150 mM KCl): 1.54e+07 ± 2e+06 M⁻¹ s⁻¹
RNA 1 AACAAAACAAAAUAGCACCGUAAAGC / RNA 2 GCUUUACGGUGCUA (dsRNA; 14 bp duplex, 5' 12 nt overhang)  Kd (DEAD-box ATP-dependent RNA helicase RhpA 1-392 (Pseudomonas aeruginosa, UniProt Q9HX66); fluorescence polarization; double-stranded RNA; together with: AMP-PNP 1 mM): 84 nM
aspterric acid  inhibition (root length; Arabidopsis thaliana Col-0 seeds; 100 µg/mL): 99.2%
AAATGTGGTTGATCCAGTCAACTATTTTG (dsDNA)  binding (mexR 1-142 C30S/C62S (Pseudomonas aeruginosa, UniProt P52003); EMSA; double-stranded DNA, one strand shown): binds
TGTATTGCACATCGTGTAATATCGCGGTATAGTATTACACACCATGTAATACAGAGATGGC (dsDNA)  binding (higA 1-104 (Proteus vulgaris, UniProt Q7A224); EMSA; double-stranded DNA, one strand shown; 0.5 µM): binds
ATTAGTTTGTATGCAAACCATT (dsDNA)  binding (MarR-family transcriptional regulator 1-147 Y26A (Clostridioides difficile, UniProt A0A9R0BIW1); EMSA; double-stranded DNA, one strand shown): binds
Polymyxin B  survival (mouse; intraperitoneal, 20 mg/kg single dose, day 3): 100%
RNA 1 CACCCGUGCAAAAAUGCAGGGGUCUAAAACUGAGCGGAUAACCUCUCUAUGG / RNA 2 CGUACCAUAGAGAGGUUAUCCGAUCACCGA (crRNA/target DNA; mismatch at position 4)  binding (Cas13d full length assumed; cryo-EM; intermediate state): binds
nonaarginine  kon (PorA peptide pore; peptide binding, planar bilayer single-channel recording; 0.5 µM, pH 7.4, +25 mV, trans side, 150 mM KCl): 1.96e+07 ± 2e+06 M⁻¹ s⁻¹
GTCTTTAATAATTAAACTAGTGTCTTGACAGATGTAAACAACAGGTATAAAC (dsDNA)  binding (niaR 1-174 K97Q (Streptococcus mutans, UniProt Q8DVX8); EMSA; double-stranded DNA, one strand shown): no binding
AUGUUU (ssRNA)  binding (CSTF2; NMR titration; RNA; 27 °C): binds
GACTACGTACTGTTACGGCTCCATCGGTACCGCAATCAGGCCAGATCTGC (dsDNA)  binding (uvrA full length assumed (Acetivibrio thermocellus, UniProt A3DC70); cryo-EM; double-stranded DNA, one strand shown; together with: AMPPNP): binds
RNA 1 CACCCGUGCAAAAAUGCAGGGGUCUAAAACUGAGCGGAUAACCUCUCUAUGG / RNA 2 CGUACCAUAGAGAGGUGAUCCGCUCACCGA (crRNA/target DNA; mismatch at position 10)  binding (Cas13d full length assumed; cryo-EM; intermediate state): binds
TTTATAAAAAACCAATATATGTCTTGACACATGTAAAAAACGTTGTATAATG (dsDNA)  binding (niaR 1-174 K97R (Streptococcus mutans, UniProt Q8DVX8); EMSA; double-stranded DNA, one strand shown): binds
GGGAGUCGACCGACCAGAAUGAUUGUUGUGUGUAUUGGGUGGCGGUAUGUGCGUCUACAUCUAGACUCAU (XNA; 2'-fluoro pyrimidines)  binding (etfB 1-253 (Leptospira interrogans, UniProt Q8F8Y6); pull-down; modified nucleic acid): binds

Repeated from above:
HVLVMSATRR  globulin (peptide, C57BL/6J mice, male, serum; subcutaneous osmotic pump, 3 mg/kg/day peptide basis, 8 weeks): 1.6 g/dL and 1.7 g/dL
glucagon  leg extraction (isotope dilution; human, type 1 diabetes; intravenous infusion, 0.05 ng/kg/min, 100 to 120 min): 27.3 ± 4.1%
CCTTAAGCGAGCCTTAAGTGA (dsDNA)  binding (carR 1-223 D51E/R211A (Pseudomonas aeruginosa, UniProt Q9I0I1); EMSA; double-stranded DNA, one strand shown): no binding
